Published values from different studies.
Each numbered part is a random draw from the data of one study; scales do not carry over between parts. Substitutions count along the parent as printed.

Block 1
Target: RNA binding protein fox-1 homolog 2, RRM domain, GST-SBP tag (RBFOX2, Homo sapiens, UniProt O43251-10, residues 100-194)
Method: RNA Bind-n-Seq
Form: RNA
Sample: in vitro
Tested at: 365 nM
Notes: natural RNA segment, single round, ends assumed
Relative to: no-protein control
Direction: higher = stronger binding
Measurement: RBNS enrichment (R)
All sequences stand within: GGGAGUUCUACAGUCCGACGAUC … UGGAAUUCUCGGGUGCCAA
Residues (chain): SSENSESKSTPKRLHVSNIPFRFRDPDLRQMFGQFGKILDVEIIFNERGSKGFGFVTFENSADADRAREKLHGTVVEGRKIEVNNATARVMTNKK
CCAAAUUGGUUCCCCUGCUCCCCCCCUCCAACCUCUCAAAGACAGAAUGUGUCUCAGAGAUUUCCUGCAAGAAACUCAGGUCCAAUCUGGACUAGAAUAAAGACCUCUGG: 1.5
AACAGACUGUGACCAAGGUCCUGUUGAGAAUUUAACAAGGCAAAAUCUGUCCUGUCACAGAAGUUUCUGAAAGCACCACAACUAAUACAGAGGAACAGAUCAGACUCCCA: 0.465
GCCUUGCUCCAGCAGCAGCACGGCCUAGCCCAACCCAGCCCAACCCGGCCCAACCCAGCCCAGCCCAGCUCAGCUCAGCUACUGCCAAGGGCAGGACCAAUGGCUGAGCC: 0.233
UAUAGUCCUUCAAUAGGAAAUUGUAAUUAAAAUAUAAUUUUAUAGAACCAUUUUUAUGUAAUCUGAUUUGAAUGUUAUAGUUGAUAAUAAUAAAAUCACUUACUUGGUUG: 0.607
UCCUCUUUGCUUGCUCUCACCUCAGGAAUUGCUUGGAUUGCUACAUGGACCCCCUGAGACUAUCAUUAUUACCUCCUAGGGCCAGGAAGCCAGGUAGGUAGUCUGAGUCA: 5.74
ACAUUUUAUUACAAAAUGUAGAAAUGCUAGCCCAUCUCCCCCUGCCCUAUACAUUUGCUCUUCCUAUAUAAGUUGGUGAACUUUCCUAUAUAACAACAUAGAAUAACAAC: 0.506
UACAAAAAUGACUGUAUUCUCUCACCAGUAGGACUUAAACUUUGUUUCUCCAGUGGCUUAGCUCCUGUUCCUUUGGGUGAUCACUAGCACCCAUUUUUGAGAAAGCUGGU: 0.352
UUUGUGGGAUUUUGUUUGGACACAGAGUUGUUUUGCAAUCAUGGUGUGCUUCCCAGGGACAGAGCGUGUGCUGUGGCGGCUAGGCUCCUUGGAGGUCACAAGCAGCUGGC: 0.883
UAGAUUGUGAGUUCUUCAAGGGCAGGCUCAUCUCCUGCACAUCUUUCUACUUCUCUACAGCAGCUGUCAGUGUUUUGUACUUGUAGACACCUAAUAAAUUGAUCAUUUGC: 0.614
UGUUUUGCGGGGAGAGGUGGCGGGGUGGGAACCGCGUCAUUCCAAAGUGGAUCUGCGGUGAAGCCAAGGAAGCCCCAUAGUUAUCAGCCACCUAAACCAGGGACCCAGCC: 0.728
GUAAAUAGAAAAAUGGUAGACCGCUGUCUAGUUUUCUCCGCAGGCAUUUUUGGGAGUGUAUCUAUAGCCUGUUCUACUUUGUUAAUGGGGGAUAACAGCACAUCCUAGAU: 0.49
UACAGCUGCUUUGUUUCUUUGCAAUGCAUUGUAUGGCUUUAUAAAUGAUAAAGUUAAAGAAAACUCUUGCCGUUAUCUAUCUGUGUUGUUCGGACAGGGGUCUGCCAUGU: 0.432

Block 2
Target: CCNA1, cyclin fold, Cln2 fusion (human)
Method: yeast growth competition, sequencing
Sample: yeast
Notes: weak parent motif
Relative to: not given
Direction: higher = stronger binding
Measurement: normalised enrichment score
Parent: SCAPER docking peptide (human); SNARRSLNFGGST; partner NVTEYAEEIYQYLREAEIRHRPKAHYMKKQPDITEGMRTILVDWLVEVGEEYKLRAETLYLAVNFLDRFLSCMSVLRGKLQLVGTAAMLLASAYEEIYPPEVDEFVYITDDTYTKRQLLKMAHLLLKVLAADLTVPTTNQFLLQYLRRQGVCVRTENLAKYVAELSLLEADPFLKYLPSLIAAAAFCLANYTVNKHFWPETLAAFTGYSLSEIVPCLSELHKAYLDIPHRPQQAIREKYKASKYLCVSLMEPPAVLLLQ
R4F: -0.0121
G10Y: 0.485
S6N: 0.413
R5D: 0.379
F9I: 0.308
T13R: 0.674
S1Y: 0.588
S6T: 0.466
N2Q: 0.635
S1F: 0.941
T13H: 0.544
S6V: 0.497
G11T: 0.746

Block 3
Target: Interferon regulatory factor 5, full length, phosphomimetic (IRF5, Homo sapiens, UniProt Q13568-2, residues 1-514, K96S/S451D/S453D/S456D/S462D)
Method: protein-binding microarray
Form: double-stranded DNA, one strand shown
Sample: in vitro
Tested at: 250 nM
Notes: 60-bp whole probe
With: salmon DNA 0.4 mg/ml
Relative to: random background probes
Direction: higher = stronger binding
Measurement: log fluorescence
All sequences stand within: GCCTAGCAC … GTCTTGATTCGCTTGACGCTGCTG
GACCATTTCAGTTCCGAGACGTGCTAG: 1.2 z-score
TTAGAACTGAGTATAGATTAGTGCTAG: -0.139 z-score
GACGAACTGGGGTTTGGAGACGTGCTA: -0.425 z-score
GACGATAGCGGGACTGGAGACGTGCTA: -0.0509 z-score
TTAGATTTCAGTGTCGATTAGTGCTAG: 1.94 z-score
TCATCTGTCCCTCTGTGACTGTGCTAG: 0.0347 z-score
TTAGGACTGTACTATCGGTTAGTGCTA: 7.26 z-score
TTAGATTACAGTTTCGATTAGTGCTAG: 8.92 z-score
TCAGAACTGGGGTTTCGATTAGTGCTA: 5.64 z-score
GACGGTATCGAATTTCGGGACGTGCTA: 2.85 z-score
ACTTTTTTCTGATTGAATCTGTGCTAG: 1.82 z-score
ACGAGTTTCCATTTTCTGAAGTGCTAG: 2.1 z-score
GACGGTTTCCTTTTCCTCACGTGCTAG: 1.32 z-score

Further values, each from its own experiment
PhoQ, residues 284 288 289 292 302 303 ASSHFY  fold induction (PhoP, residues 12 14 15 18 19 MHTVL (Escherichia coli, UniProt P23836); Sort-seq, refers to: YFP reporter; E. coli; PhoQ-PhoP variant library, with: 10 µM Mg2+; relative to: high Mg2+ state, higher = stronger signaling): 18.9

For quick reference, copied from above (block 3):
GACGATAGCGGGACTGGAGACGTGCTA: -0.0509 z-score
GACCATTTCAGTTCCGAGACGTGCTAG: 1.2 z-score
ACTTTTTTCTGATTGAATCTGTGCTAG: 1.82 z-score
GACGAACTGGGGTTTGGAGACGTGCTA: -0.425 z-score
